Measurements pooled from the literature.
Parts stem from different laboratories: compare values within a part only. “And” joins repeats or separate records; there may be more than shown.
Sequence of UniProt P09619 (whole entry, looked up): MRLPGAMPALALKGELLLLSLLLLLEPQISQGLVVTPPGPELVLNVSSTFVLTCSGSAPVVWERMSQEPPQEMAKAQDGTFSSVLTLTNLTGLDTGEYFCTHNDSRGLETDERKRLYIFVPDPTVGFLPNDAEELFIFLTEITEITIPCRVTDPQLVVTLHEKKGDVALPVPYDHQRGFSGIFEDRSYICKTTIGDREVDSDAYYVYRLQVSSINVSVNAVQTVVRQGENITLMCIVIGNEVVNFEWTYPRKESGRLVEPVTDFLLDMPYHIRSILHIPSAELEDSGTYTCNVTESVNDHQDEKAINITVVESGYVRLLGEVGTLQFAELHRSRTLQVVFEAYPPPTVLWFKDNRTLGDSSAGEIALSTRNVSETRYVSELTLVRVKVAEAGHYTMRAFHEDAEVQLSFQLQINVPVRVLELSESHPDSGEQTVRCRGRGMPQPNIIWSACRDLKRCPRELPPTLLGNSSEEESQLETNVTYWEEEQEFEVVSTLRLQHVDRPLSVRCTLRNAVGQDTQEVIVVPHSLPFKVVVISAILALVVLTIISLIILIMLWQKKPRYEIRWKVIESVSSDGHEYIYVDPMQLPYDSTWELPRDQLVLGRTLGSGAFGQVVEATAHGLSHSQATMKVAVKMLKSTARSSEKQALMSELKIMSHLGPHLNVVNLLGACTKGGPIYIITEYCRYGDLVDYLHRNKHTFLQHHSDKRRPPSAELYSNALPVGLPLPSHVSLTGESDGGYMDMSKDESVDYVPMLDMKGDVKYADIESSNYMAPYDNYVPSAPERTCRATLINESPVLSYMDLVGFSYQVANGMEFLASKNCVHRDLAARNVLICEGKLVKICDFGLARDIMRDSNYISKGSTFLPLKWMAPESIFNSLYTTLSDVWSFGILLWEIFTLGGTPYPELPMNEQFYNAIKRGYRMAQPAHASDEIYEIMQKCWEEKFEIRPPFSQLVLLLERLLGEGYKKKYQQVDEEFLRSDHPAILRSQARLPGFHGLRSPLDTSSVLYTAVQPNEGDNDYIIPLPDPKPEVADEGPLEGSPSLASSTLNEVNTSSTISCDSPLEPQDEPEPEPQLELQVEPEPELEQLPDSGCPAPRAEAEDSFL
Sequence of UniProt P04049 (whole entry, looked up): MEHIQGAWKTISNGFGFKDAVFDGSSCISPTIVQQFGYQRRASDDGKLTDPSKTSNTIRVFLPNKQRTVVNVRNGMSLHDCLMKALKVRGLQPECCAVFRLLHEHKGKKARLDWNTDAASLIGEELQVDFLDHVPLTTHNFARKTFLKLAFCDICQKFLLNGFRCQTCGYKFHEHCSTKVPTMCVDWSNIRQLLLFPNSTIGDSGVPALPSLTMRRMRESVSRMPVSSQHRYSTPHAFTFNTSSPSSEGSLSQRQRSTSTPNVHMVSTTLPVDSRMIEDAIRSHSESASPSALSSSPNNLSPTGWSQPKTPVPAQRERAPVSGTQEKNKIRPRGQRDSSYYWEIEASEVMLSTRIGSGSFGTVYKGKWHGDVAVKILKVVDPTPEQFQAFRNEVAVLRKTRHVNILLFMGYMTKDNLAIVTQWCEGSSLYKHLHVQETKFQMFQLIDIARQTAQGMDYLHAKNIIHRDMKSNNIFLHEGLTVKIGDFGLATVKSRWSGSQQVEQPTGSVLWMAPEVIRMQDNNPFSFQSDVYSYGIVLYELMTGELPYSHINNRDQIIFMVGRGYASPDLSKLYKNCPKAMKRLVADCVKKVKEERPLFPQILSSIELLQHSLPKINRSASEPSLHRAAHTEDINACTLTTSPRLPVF
Sequence of UniProt Q8TD19 (whole entry, looked up): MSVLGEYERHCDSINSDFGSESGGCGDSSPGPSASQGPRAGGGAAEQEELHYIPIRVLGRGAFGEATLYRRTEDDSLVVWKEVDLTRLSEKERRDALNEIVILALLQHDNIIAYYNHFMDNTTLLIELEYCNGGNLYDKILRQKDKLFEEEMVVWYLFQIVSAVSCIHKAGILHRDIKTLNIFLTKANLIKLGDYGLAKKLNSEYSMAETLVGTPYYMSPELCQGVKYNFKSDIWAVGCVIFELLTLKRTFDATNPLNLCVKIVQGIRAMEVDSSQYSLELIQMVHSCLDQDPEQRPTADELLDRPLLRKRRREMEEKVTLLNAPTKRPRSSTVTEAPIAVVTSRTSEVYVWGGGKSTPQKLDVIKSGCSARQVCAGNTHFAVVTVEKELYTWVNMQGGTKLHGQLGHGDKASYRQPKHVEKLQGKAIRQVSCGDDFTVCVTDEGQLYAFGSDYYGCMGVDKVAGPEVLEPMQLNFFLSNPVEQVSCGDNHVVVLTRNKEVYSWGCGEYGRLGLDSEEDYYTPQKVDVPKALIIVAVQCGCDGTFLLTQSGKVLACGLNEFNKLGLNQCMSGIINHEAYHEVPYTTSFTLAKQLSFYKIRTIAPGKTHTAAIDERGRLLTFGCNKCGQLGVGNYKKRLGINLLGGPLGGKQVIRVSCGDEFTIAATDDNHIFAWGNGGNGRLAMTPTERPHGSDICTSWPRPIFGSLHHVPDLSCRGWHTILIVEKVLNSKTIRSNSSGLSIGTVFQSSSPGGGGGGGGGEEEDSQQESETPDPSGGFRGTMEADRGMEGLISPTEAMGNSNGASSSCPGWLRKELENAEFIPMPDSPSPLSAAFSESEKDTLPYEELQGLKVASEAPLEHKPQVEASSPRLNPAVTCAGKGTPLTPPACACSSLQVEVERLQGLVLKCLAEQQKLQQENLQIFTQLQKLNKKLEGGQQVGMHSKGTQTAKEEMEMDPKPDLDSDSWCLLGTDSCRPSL
Sequence of UniProt Q07912 (whole entry, looked up): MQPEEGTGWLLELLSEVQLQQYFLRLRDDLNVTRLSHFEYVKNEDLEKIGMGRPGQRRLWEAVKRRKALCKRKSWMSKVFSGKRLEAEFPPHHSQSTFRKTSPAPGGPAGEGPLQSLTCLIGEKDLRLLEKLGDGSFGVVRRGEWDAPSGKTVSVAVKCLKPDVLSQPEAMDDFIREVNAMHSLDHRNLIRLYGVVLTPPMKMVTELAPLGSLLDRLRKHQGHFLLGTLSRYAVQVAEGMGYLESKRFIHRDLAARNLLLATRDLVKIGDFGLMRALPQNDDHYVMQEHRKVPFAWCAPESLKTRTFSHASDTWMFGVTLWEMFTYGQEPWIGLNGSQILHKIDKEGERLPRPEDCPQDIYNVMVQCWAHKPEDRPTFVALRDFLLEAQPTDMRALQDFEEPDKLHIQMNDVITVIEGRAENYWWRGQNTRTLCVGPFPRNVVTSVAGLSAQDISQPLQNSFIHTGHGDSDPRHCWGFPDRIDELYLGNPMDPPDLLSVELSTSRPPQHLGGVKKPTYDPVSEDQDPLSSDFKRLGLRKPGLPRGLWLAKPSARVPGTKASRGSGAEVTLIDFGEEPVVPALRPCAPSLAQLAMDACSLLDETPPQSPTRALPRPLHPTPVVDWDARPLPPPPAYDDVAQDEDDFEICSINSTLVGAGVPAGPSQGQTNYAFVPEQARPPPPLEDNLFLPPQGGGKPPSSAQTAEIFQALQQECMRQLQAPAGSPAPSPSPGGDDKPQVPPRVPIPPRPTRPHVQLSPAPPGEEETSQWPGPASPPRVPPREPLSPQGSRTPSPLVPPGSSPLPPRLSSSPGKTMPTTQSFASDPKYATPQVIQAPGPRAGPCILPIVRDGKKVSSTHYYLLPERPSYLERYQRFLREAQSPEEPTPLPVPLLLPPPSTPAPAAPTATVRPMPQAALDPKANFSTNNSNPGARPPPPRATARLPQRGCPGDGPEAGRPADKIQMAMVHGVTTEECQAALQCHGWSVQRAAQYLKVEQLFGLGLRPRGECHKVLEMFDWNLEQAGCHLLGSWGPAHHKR
Sequence of UniProt Q15375 (whole entry, looked up): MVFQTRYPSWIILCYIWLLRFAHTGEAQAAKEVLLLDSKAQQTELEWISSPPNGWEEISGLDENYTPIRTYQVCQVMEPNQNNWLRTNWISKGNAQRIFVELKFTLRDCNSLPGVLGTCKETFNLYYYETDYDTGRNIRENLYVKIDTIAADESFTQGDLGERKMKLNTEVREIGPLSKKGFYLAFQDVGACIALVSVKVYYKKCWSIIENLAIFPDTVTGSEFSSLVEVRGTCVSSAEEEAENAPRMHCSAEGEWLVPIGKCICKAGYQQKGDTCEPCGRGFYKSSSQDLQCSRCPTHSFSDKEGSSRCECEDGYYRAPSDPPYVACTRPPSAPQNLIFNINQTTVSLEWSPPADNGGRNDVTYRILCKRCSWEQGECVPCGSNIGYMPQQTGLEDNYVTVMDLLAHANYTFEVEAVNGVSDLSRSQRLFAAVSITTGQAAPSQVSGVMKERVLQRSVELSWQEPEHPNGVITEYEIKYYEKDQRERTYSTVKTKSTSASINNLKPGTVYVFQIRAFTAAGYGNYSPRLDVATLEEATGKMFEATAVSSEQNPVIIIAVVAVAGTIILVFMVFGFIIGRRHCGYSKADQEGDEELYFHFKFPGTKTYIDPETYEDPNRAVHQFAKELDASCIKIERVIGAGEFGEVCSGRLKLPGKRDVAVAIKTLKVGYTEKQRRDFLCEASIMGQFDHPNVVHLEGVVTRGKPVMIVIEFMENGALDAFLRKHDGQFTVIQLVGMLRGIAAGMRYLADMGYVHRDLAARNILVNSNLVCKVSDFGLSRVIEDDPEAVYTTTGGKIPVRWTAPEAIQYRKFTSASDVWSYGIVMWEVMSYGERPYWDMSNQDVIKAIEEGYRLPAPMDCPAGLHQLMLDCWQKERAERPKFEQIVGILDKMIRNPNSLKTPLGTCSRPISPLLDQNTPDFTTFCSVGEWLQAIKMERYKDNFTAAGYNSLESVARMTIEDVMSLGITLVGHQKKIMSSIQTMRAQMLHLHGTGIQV

Series 1 — cell line: HaCaT; tested at: 100 µM; time: 18 h
`C[C@@H]1C/C=C/C=C/C=C/C=C/[C@H](O[C@@H]2O[C@H](C)[C@@H](O)[C@H](N)[C@@H]2O)C[C@@H]2O[C@](O)(C[C@@H](O)C[C@H]3O[C@@H]3/C=C/C(=O)O1)C[C@H](O)[C@H]2C(=O)O` has a viability of 96.8%.
The viability of `Nc1c(CC(=O)O)cccc1C(=O)c1ccc(Br)cc1` is reported as 107%.
`CC[C@@]1(O)C(=O)OCc2c1cc1n(c2=O)Cc2cc3c(CN(C)C)c(O)ccc3nc2-1` gave a viability of 75.2%.
For `CC1CC(OC(=O)C(O)c2ccccc2)CC(C)(C)C1` (centres unmarked), the viability was 20.1%.
For `CC(=O)Oc1cccc2c1C(=O)c1c(OC(C)=O)cc(C(=O)O)cc1C2=O`, the viability was 86.4%.
`CCN1CCN(C(=O)N[C@@H](C(=O)N[C@@H]2C(=O)N3[C@@H]2SC(C)(C)[C@@H]3C(=O)O)c2ccccc2)C(=O)C1=O` has a viability of 94.8%.
For `CCCNS(=O)(=O)Nc1ncnc(OCCOc2ncc(Br)cn2)c1-c1ccc(Br)cc1`, the viability was 84.3%.
`CNCCCC1c2ccccc2C=Cc2ccccc21` has a viability of 14.6%.

Series 2 — SMILES: O=c1cc(N2CCOCC2)oc2c(-c3ccccc3)cccc12; effect on: enzyme activity; mode: inhibitor; tested at: 0.5 µM; baseline: control
For Fibroblast growth factor receptor 2 (FGFR2, Homo sapiens, UniProt P21802): remaining activity read 95.8%.
The remaining activity was 86.4% (Serine/threonine-protein kinase TAO1 (TAOK1, Homo sapiens, UniProt Q7L7X3)).
It gave 82.3% for remaining activity (RAF proto-oncogene serine/threonine-protein kinase (RAF1, Homo sapiens, UniProt P04049)).
The remaining activity was 97.7% (Insulin receptor-related protein (INSRR, Homo sapiens, UniProt P14616)).
For Serine/threonine-protein kinase VRK1 (VRK1, Homo sapiens, UniProt Q99986): remaining activity read 85.4%.
It gave 112% for remaining activity (BDNF/NT-3 growth factors receptor (NTRK2, Homo sapiens, UniProt Q16620)).
The remaining activity was 90.8% (Dual specificity tyrosine-phosphorylation-regulated kinase 2 (DYRK2, Homo sapiens, UniProt Q92630)).
For Serine/threonine-protein kinase ULK1 (ULK1, Homo sapiens, UniProt O75385): remaining activity read 102%.
The remaining activity was 89.9% (Receptor-interacting serine/threonine-protein kinase 2 (RIPK2, Homo sapiens, UniProt O43353)).
Activin receptor type-1 (ACVR1, Homo sapiens, UniProt Q04771) — remaining activity: 91.2%.
Tyrosine-protein kinase HCK (HCK, Homo sapiens, UniProt P08631) — remaining activity: 98.3%.
For Activated CDC42 kinase 1 (TNK2, Homo sapiens, UniProt Q07912): remaining activity read 88.7%.
For Platelet-derived growth factor receptor beta (PDGFRB, Homo sapiens, UniProt P09619): remaining activity read 102%.
For Serine/threonine-protein kinase Sgk3 (SGK3, Homo sapiens, UniProt Q96BR1): remaining activity read 109%.
For Phosphorylase b kinase gamma catalytic chain, liver/testis isoform (PHKG2, Homo sapiens, UniProt P15735): remaining activity read 97.2%.
The remaining activity was 108% (Mitogen-activated protein kinase kinase kinase 9 (MAP3K9, Homo sapiens, UniProt P80192)).
It gave 92.2% for remaining activity (Mitogen-activated protein kinase kinase kinase kinase 5 (MAP4K5, Homo sapiens, UniProt Q9Y4K4)).
The remaining activity was 92.5% (Serine/threonine-protein kinase D3 (PRKD3, Homo sapiens, UniProt O94806)).

Series 3 — cell line: mouse MPNST tumor cells; method: high-content immunofluorescence imaging; measured: nuclear SOX9; tested at: 10 µM; time: 12 h; notes: mean of 2 replicates; baseline: DMSO control; reading: higher = more nuclear SOX9
`CC(NC(=O)C(OC(=O)C(C)NC(=O)OC(C)(C)C)C(C)C)C(=O)OC(C(=O)O)C(C)C` (centres unmarked) — result for “nuclear SOX9 intensity”: 100 % of DMSO.
Under “nuclear SOX9 intensity”, `Cc1cc(-n2nc(Cc3cc(F)cc(C(F)(F)F)c3)nc2C)ccc1C(N)=O` is recorded as 129 % of DMSO.
Under “nuclear SOX9 intensity”, `CCOc1cc(N2CCC(O)CC2)ccc1Nc1ncc2c(n1)N(C)c1ccccc1C(=O)N2C` is recorded as 134 % of DMSO.
`CCCN(CC1CC1)c1nc(C)nc(Nc2c(Cl)cc(Cl)cc2Cl)c1Cl`: “nuclear SOX9 intensity” 119 % of DMSO.
`N#CC(=Cc1cn(-c2ccccc2)c2ccccc12)C(=O)O`: “nuclear SOX9 intensity” 83.5 % of DMSO.
`O=C(NO)c1ccc2[nH]c(=O)c(CCCc3ccccc3)nc2c1`: “nuclear SOX9 intensity” 116 % of DMSO.
`C=CC[C@@H]1/C=C(\C)C[C@H](C)C[C@H](OC)[C@H]2O[C@@](O)(C(=O)C(=O)N3CCCC[C@H]3C(=O)O[C@H](/C(C)=C/[C@@H]3CC[C@@H](O)[C@H](OC)C3)[C@H](C)[C@@H](O)CC1=O)[C@H](C)C[C@@H]2OC`: “nuclear SOX9 intensity” 116 % of DMSO.
`CC#C[C@]1(O)CC[C@H]2[C@@H]3CCC4=CC(=O)CCC4=C3[C@@H](c3ccc(N(C)C)cc3)C[C@@]21C`: “nuclear SOX9 intensity” 140 % of DMSO and 106 % of DMSO and 125 % of DMSO.
`O=C(NCc1ccc2c(c1)OCO2)c1c(Cl)cccc1Cl`: “nuclear SOX9 intensity” 111 % of DMSO.
`Fc1ccc(-c2c3cccc(C(F)(F)F)c3nn2Cc2ccc(F)cc2Cl)cc1` — result for “nuclear SOX9 intensity”: 100 % of DMSO.
For `Cc1ccc(-c2csc3ncnc(SCCC(=O)O)c23)cc1`, “nuclear SOX9 intensity” read 100 % of DMSO.
Under “nuclear SOX9 intensity”, `Cc1nc(Nc2n[nH]c3c2CN(C(=O)N[C@H](CN(C)C)c2ccccc2)C3(C)C)c2sccc2n1` is recorded as 118 % of DMSO.
`CCOC(=O)[C@]12CC1/C(=N\O)c1ccccc1O2` (some centres unmarked): “nuclear SOX9 intensity” 102 % of DMSO.
`NC(N)=NCC1COC2(CCCCC2)O1` (centres unmarked): “nuclear SOX9 intensity” 93.4 % of DMSO.
`CCCNC(C)C(=O)Nc1ccccc1C` (centres unmarked) — result for “nuclear SOX9 intensity”: 105 % of DMSO.
Under “nuclear SOX9 intensity”, `CC(=O)NO` is recorded as 96.6 % of DMSO.

Series 4 — method: competition with immobilised ligand; tested at: 0.1 µM
Structure (SMILES): C[C@H](c1ccnc(Nc2nc3ccc(-c4cc(N(C)C)ncn4)cc3[nH]2)c1)N1CCN(C(=O)CC(F)(F)F)CC1
For Receptor-type tyrosine-protein kinase FLT3, autoinhibited (FLT3, Homo sapiens, UniProt P36888); cell-free assay: remaining binding read 95%.
It gave 100% for remaining binding (Microtubule-associated serine/threonine-protein kinase 1 (MAST1, Homo sapiens, UniProt Q9Y2H9); cell-free assay).
It gave 89% for remaining binding (Mitogen-activated protein kinase 9 (MAPK9, Homo sapiens, UniProt P45984); cell-free assay).
It gave 100% for remaining binding (Ephrin type-A receptor 7 (EPHA7, Homo sapiens, UniProt Q15375); cell-free assay).
For Fibroblast growth factor receptor 1 (FGFR1, Homo sapiens, UniProt P11362); cell-free assay: remaining binding read 100%.
Cyclin-dependent kinase-like 5 (CDKL5, Homo sapiens, UniProt O76039); binding — remaining binding: 100%.
Leucine-rich repeat serine/threonine-protein kinase 2 (LRRK2, Homo sapiens, UniProt Q5S007); cell-free assay — remaining binding: 94%.
The remaining binding was 98% (Dual specificity testis-specific protein kinase 1 (TESK1, Homo sapiens, UniProt Q15569); cell-free assay).
Serine/threonine-protein kinase/endoribonuclease IRE1 (ERN1, Homo sapiens, UniProt O75460); cell-free assay — remaining binding: 86%.
The remaining binding was 100% (Cyclin-dependent kinase 16 (CDK16, Homo sapiens, UniProt Q00536); cell-free assay).
For Mitogen-activated protein kinase 4 (MAPK4, Homo sapiens, UniProt P31152); cell-free assay: remaining binding read 100%.
The remaining binding was 95% (Receptor-interacting serine/threonine-protein kinase 1 (RIPK1, Homo sapiens, UniProt Q13546); cell-free assay).
For Serine/threonine-protein kinase PLK4 (PLK4, Homo sapiens, UniProt O00444); cell-free assay: remaining binding read 96%.
Serine/threonine-protein kinase RIO1 (RIOK1, Homo sapiens, UniProt Q9BRS2); cell-free assay — remaining binding: 100%.
For Calcium/calmodulin-dependent protein kinase type 1 (CAMK1, Homo sapiens, UniProt Q14012); cell-free assay: remaining binding read 88%.
Serine/threonine-protein kinase Nek9 (NEK9, Homo sapiens, UniProt Q8TD19); cell-free assay — remaining binding: 100%.
It gave 74% for remaining binding (Death-associated protein kinase 2 (DAPK2, Homo sapiens, UniProt Q9UIK4); cell-free assay).
The remaining binding was 100% (Tyrosine-protein kinase CSK (CSK, Homo sapiens, UniProt P41240); cell-free assay).
The remaining binding was 82% (Dual specificity protein kinase TTK (TTK, Homo sapiens, UniProt P33981); cell-free assay).
LIM domain kinase 1 (LIMK1, Homo sapiens, UniProt P53667); cell-free assay — remaining binding: 100%.
The remaining binding was 100% (G protein-coupled receptor kinase 4 (GRK4, Homo sapiens, UniProt P32298); cell-free assay).
Ribosomal protein S6 kinase beta-1 (RPS6KB1, Homo sapiens, UniProt P23443); cell-free assay — remaining binding: 100%.
It gave 100% for remaining binding (Serine/threonine-protein kinase PAK 3 (PAK3, Homo sapiens, UniProt O75914); cell-free assay).

For quick reference, copied from above (series 4):
For Serine/threonine-protein kinase PLK4 (PLK4, Homo sapiens, UniProt O00444); cell-free assay: remaining binding read 96%.
Ribosomal protein S6 kinase beta-1 (RPS6KB1, Homo sapiens, UniProt P23443); cell-free assay — remaining binding: 100%.
The remaining binding was 100% (Tyrosine-protein kinase CSK (CSK, Homo sapiens, UniProt P41240); cell-free assay).
The remaining binding was 95% (Receptor-interacting serine/threonine-protein kinase 1 (RIPK1, Homo sapiens, UniProt Q13546); cell-free assay).
The remaining binding was 82% (Dual specificity protein kinase TTK (TTK, Homo sapiens, UniProt P33981); cell-free assay).
For Mitogen-activated protein kinase 4 (MAPK4, Homo sapiens, UniProt P31152); cell-free assay: remaining binding read 100%.
The remaining binding was 100% (G protein-coupled receptor kinase 4 (GRK4, Homo sapiens, UniProt P32298); cell-free assay).
For Calcium/calmodulin-dependent protein kinase type 1 (CAMK1, Homo sapiens, UniProt Q14012); cell-free assay: remaining binding read 88%.
It gave 100% for remaining binding (Serine/threonine-protein kinase PAK 3 (PAK3, Homo sapiens, UniProt O75914); cell-free assay).
Serine/threonine-protein kinase RIO1 (RIOK1, Homo sapiens, UniProt Q9BRS2); cell-free assay — remaining binding: 100%.
